# Experimental data gathered from unrelated publications.
# Every numbered part comes from another study and shows a few of its results, in no order.

# Block 1
# Target: Histone acetyltransferase KAT6A, winged helix 2, GST fusion (KAT6A, Homo sapiens, UniProt Q92794, residues 85-181)
# Technique: protein binding microarray
# Form: double-stranded DNA, one strand shown
# Sample: in vitro
# Tested at: not given
# Setting: 8-mer, flanks averaged, mean of 2 arrays, mostly near background
# Relative to: not given
# Reading: higher = stronger binding
# Residues (chain): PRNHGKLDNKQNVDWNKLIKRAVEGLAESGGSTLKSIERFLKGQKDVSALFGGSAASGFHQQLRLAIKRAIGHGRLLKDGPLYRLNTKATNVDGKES
Strand,E-score
GAAGGGCC,0.114
AGATCACC,-0.104
ATATTTGA,0.00656
CTAAATAC,-0.0898
AAAAGCAT,0.0515
CGCGATTA,0.113
CAGTGGGG,-0.0816
AAAAGAAG,0.0949
GAATAAGA,0.0451
AAACAGCG,0.0289
ACTCGCCG,0.0221
CAGAGCCA,0.0121
CAGTTAGA,0.129
CATCAACC,-0.0469
CCCCCCAA,-0.0022
ACTATACA,0.0137
AGTCGGGA,0.144
TCTTGGCA,0.105
ATCCTCGA,0.00521
ATGGTGCC,-0.018
CACTTGTC,-0.153
AGGTAGTA,-0.146
GTACCGAA,-0.0749
GAGGTTGC,0.0474
GACCCGCC,0.194

# Block 2
# Target: Sal-like protein 4, full length isoform A (SALL4, Homo sapiens, UniProt Q9UJQ4, residues 1-1053)
# UniProt Q9UJQ4, sequence (whole entry, looked up): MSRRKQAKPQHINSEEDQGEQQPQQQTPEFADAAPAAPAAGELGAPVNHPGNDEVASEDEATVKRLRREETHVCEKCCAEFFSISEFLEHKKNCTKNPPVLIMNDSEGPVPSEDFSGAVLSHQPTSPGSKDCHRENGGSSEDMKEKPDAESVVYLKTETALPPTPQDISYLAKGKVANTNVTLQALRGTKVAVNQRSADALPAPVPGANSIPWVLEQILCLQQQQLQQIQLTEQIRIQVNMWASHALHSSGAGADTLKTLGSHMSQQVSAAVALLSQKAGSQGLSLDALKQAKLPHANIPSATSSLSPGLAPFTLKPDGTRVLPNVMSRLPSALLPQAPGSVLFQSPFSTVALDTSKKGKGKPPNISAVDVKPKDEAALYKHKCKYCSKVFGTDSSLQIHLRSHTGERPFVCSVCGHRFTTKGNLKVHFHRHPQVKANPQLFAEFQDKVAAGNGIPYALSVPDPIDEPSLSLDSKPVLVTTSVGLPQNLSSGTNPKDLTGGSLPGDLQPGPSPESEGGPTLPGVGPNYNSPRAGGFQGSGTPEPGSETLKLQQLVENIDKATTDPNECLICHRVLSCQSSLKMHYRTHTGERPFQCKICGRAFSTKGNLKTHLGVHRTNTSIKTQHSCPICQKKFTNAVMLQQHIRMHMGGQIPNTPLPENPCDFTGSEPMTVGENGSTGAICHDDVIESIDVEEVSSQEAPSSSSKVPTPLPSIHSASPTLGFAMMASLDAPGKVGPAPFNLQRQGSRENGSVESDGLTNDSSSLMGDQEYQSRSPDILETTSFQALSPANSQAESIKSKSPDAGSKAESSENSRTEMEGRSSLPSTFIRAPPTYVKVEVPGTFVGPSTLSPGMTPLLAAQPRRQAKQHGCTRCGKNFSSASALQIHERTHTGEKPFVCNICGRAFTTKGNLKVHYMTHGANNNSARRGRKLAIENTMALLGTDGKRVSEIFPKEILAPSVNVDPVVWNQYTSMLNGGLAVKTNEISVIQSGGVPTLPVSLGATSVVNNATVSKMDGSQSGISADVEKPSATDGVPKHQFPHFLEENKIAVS
# Technique: universal PBM
# Form: double-stranded DNA, one strand shown
# Sample: in vitro
# Tested at: 600 nM
# Setting: 8-mer, flanks averaged, mean of replicates
# Reading: higher = stronger binding
Strand,E-score
AGAGTAAT,0.263
CGCCGCCC,-0.467
AATTAGAT,0.27
AAGAATTA,0.262
AGTTCATA,0.315
CAGACCTG,-0.231
GGAGTGGA,-0.0809
AGGCAAAT,0.0868
AATTCGCT,0.166
CCGCATTC,-0.146
CCGTTTAG,-0.116
GTATTTGA,0.255
AATGCCGT,0.0809
CTCGGTGC,-0.388
ATGTCACA,0.197
AAGCAAGG,-0.123
GAGGGAGA,-0.123
CAGCAATG,0.0202
GGGAGCAA,-0.194
AGTTTCGC,-0.00601
TTCTAAAA,0.229
AGTATAAG,0.292
AATGCATC,0.135
GAGATATC,0.0674
ATATTCAA,0.376

# Block 3
# Target: Interferon regulatory factor 5, full length, phosphomimetic (IRF5, Homo sapiens, UniProt Q13568-2, residues 1-514, K96S/S451D/S453D/S456D/S462D)
# Technique: protein-binding microarray
# Form: double-stranded DNA, one strand shown
# Sample: in vitro
# Tested at: 250 nM
# Setting: 60-bp whole probe
# Together with: salmon DNA 0.4 mg/ml
# Relative to: random background probes
# Reading: higher = stronger binding
# Shared flanks, not repeated: GCCTAGCAC … GTCTTGATTCGCTTGACGCTGCTG
Strand,log fluorescence [z-score]
TTAGGACTGCTTATCCTTAAGTGCTAG,-0.0883
ATAGGTTTCGGTATCGGTTAGTGCTAG,10.9
GGTCTTCTGGGCTGTTTGGTCGTGCTA,-0.439
TCAGTTTCCCCTATTTAACTGTGCTAG,2.28
TGAGGTTTTCTAATGTTTTTGTGCTAG,0.66
TTAGGTCTCCTTCTTCTTTAGTGCTAG,0.208
TTAGATTTCAGTACCGATTAGTGCTAG,2.15
ACTTCATTGCATATAGAAAAGTGCTAG,0.538
CTAGATATCAGTTTCGATTAGTGCTAG,10
TTAGGACTGGGTAGCGGTTAGTGCTAG,-0.621
TTAGGACTGGGTAACGGTTAGTGCTAG,-0.295
TTAGAACTGTGTTTCGATTAGTGCTAG,7.2
TTAGGTATCTTTATCCTTTAGTGCTAG,0.218
CTCTGCTTGTGTCTGGGCTTGTGCTAG,-0.505
AGGTTGATGGCTCTCTGGACGTGCTAG,-0.86
GACTGACTGGGTCTCGGGACGTGCTAG,-0.459
TTAGGTTTCGGTATCCGTTAGTGCTAG,10.5
GACGGACTGCGGACTGGGGACGTGCTA,-0.452
TTAGGTTTCCTTTCCCTTGAGTGCTAG,1.9

# Block 4
# Target: Ras GTPase-activating protein-binding protein 1, full length (G3BP1, Homo sapiens, UniProt Q13283)
# UniProt Q13283, sequence (whole entry, looked up): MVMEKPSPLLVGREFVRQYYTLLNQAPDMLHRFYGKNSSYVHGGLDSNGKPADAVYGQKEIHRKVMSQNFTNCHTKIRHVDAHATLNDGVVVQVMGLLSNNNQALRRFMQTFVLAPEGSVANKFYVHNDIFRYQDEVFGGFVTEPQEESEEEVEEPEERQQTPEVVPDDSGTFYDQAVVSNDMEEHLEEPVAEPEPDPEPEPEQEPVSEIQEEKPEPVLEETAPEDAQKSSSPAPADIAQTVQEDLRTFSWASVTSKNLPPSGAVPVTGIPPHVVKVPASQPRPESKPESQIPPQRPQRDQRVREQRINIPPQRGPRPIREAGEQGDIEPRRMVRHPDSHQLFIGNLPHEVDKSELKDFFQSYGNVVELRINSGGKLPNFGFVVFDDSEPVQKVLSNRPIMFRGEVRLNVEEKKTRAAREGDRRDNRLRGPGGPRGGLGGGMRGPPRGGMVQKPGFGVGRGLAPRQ
# Technique: RNA Bind-n-Seq
# Form: RNA
# Sample: in vitro
# Tested at: 200 nM
# Setting: whole 134-nt RNA, ends assumed
# Together with: 150 mM LiCl
# Relative to: input library
# Reading: higher = stronger binding
# Each molecule: 7-deaza-guanosine replaces G
# Shared flanks, not repeated: GGGAGUUCUACAGUCCGACGAUC … UGGAAUUCUCGGGUGUCAAGG
Strand,log2 enrichment
GCAGGAAGUAAAAACAAAUGGAAAUGCUUCGGAUAGUGGCAGGGGUGGGGGUUGCUAAGGAAAGUGUGGGAUGGGAGUGGGUAAAGAGUU,0.0759
UCAAGUCCUGUGCUACACAUCGUAUGUACCGAAUCGGGUUGGGGUUGGGUUGGGGAAAGUAUUAUGUUACGCCGUUCGGAUCUGCACUUC,0.434
GUCCUGUGCUACACAUCGUAUGUACCGAAUCGGGAAAAAAAGGGAAAGGGAAAAAGGGAAAGUAUUAUGUUACGCCGUUCGGAUCUGCAC,-0.0878
CCUCAAGUCCUGUGCUACACAUCGUAUGUACCGAAUCGGAGGGGAGGGGAGGAAAGUAUUAUGUUACGCCGUUCGGAUCUGCACUUCCAG,-0.119
CACAGACAACACGCACCCACACAGACACAGAGGGAAGGGGUUGGGAUGGGGACAGGGUGCAUAGCAGGGCGGGGUAGGACCCCAGCCCCU,-0.0445
UUUGAAGGUGAUUUCUGGCCCAAUGUGUUAGAAGAGAGCAUUAAGGAACUAGAACAAGAAGAAGAGGAGAGGAAAAAGGAAGAGAGCACU,-1.95
UACUGCUCCUCAGCAGGAAGCGGAUGCUGAGGUGAACACAGAAACACUAAAUAAGUCCUCCCAGGGGAGCUCCUCGAGCACACAAUCAGC,0.986
CAAGUCCUGUGCUACACAUCGUAUGUACCGAAUCGGGGUUUGGUUUGGUUUGGGGAAAGUAUUAUGUUACGCCGUUCGGAUCUGCACUUC,0.137

# Repeated from above (block 2):
Strand,E-score
TTCTAAAA,0.229
GTATTTGA,0.255
GGGAGCAA,-0.194
AATGCCGT,0.0809
AGTATAAG,0.292
AATTAGAT,0.27
AGTTTCGC,-0.00601
CGCCGCCC,-0.467
AATTCGCT,0.166
CAGACCTG,-0.231
CCGTTTAG,-0.116
